Results pooled from the literature.
Compare with care: the assays were run in different laboratories. ± gives the spread as reported.
CDK2 with cyclin A2: Cyclin-dependent kinase 2, with cyclin A2 (CDK2, Homo sapiens, UniProt P24941)
MERTK: Tyrosine-protein kinase Mer (MERTK, Homo sapiens, UniProt Q12866)
UniProt Q12866, sequence (whole entry, looked up): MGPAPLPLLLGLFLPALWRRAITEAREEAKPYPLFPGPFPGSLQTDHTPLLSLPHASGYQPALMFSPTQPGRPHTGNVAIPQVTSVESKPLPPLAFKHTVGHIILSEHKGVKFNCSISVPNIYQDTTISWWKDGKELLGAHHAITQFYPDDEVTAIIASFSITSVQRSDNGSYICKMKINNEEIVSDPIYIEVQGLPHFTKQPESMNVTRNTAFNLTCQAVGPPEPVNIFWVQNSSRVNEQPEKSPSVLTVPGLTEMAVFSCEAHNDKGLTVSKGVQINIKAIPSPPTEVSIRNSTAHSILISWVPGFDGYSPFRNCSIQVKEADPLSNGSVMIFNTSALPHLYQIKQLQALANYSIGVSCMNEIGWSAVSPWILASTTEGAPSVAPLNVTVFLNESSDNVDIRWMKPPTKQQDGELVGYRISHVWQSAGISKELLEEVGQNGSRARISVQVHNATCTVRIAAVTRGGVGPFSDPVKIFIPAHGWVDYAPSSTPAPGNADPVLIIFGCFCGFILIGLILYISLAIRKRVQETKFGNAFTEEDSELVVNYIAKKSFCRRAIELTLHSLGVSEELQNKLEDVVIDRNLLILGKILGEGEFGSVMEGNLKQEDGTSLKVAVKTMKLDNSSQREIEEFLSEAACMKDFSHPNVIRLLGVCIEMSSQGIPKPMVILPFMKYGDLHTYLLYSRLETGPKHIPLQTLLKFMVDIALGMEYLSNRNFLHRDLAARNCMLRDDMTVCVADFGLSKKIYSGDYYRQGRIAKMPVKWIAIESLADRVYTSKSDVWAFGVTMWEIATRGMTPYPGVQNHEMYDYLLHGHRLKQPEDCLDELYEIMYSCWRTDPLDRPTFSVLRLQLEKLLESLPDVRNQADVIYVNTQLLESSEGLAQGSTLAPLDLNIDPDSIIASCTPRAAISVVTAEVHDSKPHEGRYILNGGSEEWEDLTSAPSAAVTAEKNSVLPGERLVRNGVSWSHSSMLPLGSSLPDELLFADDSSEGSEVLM
UniProt P0C264, sequence (whole entry, looked up): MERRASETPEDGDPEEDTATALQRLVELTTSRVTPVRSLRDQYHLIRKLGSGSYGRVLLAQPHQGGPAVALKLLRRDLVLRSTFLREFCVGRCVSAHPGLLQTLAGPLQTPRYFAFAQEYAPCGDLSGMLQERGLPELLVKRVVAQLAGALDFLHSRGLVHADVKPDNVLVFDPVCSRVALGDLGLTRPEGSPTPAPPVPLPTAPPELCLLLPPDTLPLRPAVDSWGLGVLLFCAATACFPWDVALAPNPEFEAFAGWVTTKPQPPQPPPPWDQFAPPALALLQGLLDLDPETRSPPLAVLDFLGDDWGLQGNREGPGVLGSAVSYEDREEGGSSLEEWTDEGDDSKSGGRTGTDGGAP
UniProt P08069, sequence (whole entry, looked up): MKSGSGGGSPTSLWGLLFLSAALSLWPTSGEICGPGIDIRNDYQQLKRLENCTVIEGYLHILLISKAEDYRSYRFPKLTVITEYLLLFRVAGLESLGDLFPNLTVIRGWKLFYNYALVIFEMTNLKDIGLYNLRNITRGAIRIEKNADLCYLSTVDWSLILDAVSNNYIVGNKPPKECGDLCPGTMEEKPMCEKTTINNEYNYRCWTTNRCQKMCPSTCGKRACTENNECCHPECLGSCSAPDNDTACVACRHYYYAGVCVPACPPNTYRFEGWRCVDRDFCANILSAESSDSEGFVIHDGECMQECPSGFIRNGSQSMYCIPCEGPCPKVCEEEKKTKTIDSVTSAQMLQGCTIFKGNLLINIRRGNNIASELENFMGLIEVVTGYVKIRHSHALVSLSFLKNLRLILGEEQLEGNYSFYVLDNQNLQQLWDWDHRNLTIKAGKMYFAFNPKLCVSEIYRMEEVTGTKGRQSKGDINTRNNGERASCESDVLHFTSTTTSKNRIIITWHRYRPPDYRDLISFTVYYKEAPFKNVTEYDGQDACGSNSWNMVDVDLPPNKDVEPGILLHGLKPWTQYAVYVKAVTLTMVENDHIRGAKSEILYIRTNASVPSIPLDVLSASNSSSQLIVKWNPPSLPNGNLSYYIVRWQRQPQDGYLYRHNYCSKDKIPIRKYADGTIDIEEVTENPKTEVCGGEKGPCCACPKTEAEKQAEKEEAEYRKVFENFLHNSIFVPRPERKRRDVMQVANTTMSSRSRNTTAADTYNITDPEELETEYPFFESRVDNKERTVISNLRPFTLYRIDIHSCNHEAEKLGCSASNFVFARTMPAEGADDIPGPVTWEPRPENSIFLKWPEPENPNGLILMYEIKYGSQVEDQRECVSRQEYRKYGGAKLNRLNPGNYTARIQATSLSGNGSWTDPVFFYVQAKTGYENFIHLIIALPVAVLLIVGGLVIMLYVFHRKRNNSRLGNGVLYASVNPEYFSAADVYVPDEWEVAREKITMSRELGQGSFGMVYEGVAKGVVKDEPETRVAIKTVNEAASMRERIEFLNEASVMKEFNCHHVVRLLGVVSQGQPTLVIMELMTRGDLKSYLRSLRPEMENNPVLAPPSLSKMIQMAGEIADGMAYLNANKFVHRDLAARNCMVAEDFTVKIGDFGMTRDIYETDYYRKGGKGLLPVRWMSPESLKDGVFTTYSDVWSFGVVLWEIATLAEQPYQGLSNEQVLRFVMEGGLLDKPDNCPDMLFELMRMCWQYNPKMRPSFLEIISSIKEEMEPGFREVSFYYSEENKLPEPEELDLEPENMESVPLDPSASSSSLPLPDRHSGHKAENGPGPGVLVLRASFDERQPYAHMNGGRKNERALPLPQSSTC
UniProt P45984, sequence (whole entry, looked up): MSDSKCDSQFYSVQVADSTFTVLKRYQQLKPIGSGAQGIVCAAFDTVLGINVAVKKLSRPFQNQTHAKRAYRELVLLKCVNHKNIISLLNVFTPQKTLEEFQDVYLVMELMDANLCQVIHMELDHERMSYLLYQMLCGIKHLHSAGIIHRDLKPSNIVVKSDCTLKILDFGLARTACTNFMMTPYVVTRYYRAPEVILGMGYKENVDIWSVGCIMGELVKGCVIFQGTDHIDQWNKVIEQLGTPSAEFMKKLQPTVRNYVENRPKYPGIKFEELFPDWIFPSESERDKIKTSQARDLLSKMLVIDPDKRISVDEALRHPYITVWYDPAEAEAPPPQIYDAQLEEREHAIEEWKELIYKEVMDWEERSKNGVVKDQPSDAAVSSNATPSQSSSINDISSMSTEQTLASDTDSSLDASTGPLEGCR
UniProt Q96PF2, sequence (whole entry, looked up): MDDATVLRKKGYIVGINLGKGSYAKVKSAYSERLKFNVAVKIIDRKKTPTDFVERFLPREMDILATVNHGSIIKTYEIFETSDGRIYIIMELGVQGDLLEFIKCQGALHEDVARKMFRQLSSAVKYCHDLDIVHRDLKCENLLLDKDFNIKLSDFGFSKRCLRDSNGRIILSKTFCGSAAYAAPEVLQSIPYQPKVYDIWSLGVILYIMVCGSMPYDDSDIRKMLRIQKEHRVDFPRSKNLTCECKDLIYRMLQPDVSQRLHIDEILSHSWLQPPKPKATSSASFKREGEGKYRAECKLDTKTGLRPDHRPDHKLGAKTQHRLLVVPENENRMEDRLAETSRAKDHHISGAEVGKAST
UniProt Q9Y572, sequence (whole entry, looked up): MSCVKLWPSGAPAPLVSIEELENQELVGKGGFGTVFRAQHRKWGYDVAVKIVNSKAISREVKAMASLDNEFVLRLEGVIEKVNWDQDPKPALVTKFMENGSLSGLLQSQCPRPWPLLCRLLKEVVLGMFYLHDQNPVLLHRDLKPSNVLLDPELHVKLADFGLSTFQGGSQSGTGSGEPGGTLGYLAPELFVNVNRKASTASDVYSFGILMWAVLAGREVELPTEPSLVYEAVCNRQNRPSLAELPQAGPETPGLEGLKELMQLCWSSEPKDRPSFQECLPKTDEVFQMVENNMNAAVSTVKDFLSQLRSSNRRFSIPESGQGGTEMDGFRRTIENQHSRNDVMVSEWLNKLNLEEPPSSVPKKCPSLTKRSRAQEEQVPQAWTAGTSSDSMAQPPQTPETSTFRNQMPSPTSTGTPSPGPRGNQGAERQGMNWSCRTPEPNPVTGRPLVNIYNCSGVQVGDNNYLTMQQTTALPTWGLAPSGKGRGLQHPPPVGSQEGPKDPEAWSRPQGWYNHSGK
UniProt P48426, sequence (whole entry, looked up): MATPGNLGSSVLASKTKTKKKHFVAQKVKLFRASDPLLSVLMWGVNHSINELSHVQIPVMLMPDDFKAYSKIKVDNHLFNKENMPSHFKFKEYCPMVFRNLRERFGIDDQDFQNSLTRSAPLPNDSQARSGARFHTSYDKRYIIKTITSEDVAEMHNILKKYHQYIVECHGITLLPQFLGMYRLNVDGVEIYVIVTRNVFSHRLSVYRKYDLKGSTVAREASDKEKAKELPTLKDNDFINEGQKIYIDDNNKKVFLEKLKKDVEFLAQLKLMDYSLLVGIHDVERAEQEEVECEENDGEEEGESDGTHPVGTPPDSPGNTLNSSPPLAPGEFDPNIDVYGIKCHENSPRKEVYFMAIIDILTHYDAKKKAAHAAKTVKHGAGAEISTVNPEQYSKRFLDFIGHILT

Structure (SMILES) | target | assay | conditions | scale | remaining activity
O=C(NC1CCC1)c1ccc2nc(-c3cccc(NS(=O)(=O)NCCN4CCCCC4)c3)cn2c1 | Uncharacterized serine/threonine-protein kinase SBK3 (SBK3, Homo sapiens, UniProt P0C264) | enzyme activity | 10 µM | – | 84%
COc1cc(N2CCN(C)CC2)ccc1Nc1nc(N)n(C(=S)NCc2c(Cl)cccc2Cl)n1 | Homeodomain-interacting protein kinase 2 (HIPK2, Homo sapiens, UniProt Q9H2X6) | enzyme activity | 10 µM | relative to: control | 10%
COc1cc(-c2cncc3c2CN(C)Cc2cc(N4CCNCC4)ccc2-3)cc(OC)c1OC | Phosphatidylinositol 5-phosphate 4-kinase type-2 alpha (PIP4K2A, Homo sapiens, UniProt P48426) | kinase activity | 1 µM, human enzyme, with: ATP 10 µM | relative to: DMSO control | 106%
CC(=O)Nc1c(N)nc(SCC(=O)N/N=C/c2ccc([N+](=O)[O-])cc2)[nH]c1=O | CDK2 with cyclin A2 | kinase activity | 100 nM | – | 62.4%
COc1ccc(F)cc1C(=O)NCc1ccc(-c2nn([C@@H](C)C(F)(F)F)c(N)c2C(N)=O)cc1 | cAMP-dependent protein kinase catalytic subunit beta (PRKACB, Homo sapiens, UniProt P22694) | kinase activity, inhibitor, HotSpot radiometric | 100 nM, with: ATP 10 µM | – | 84.8 ± 0.4%
CNc1ncc2c(/C=C/C(=O)N3CCC(OC)CC3)nn(Cc3cccc(C(F)(F)F)c3)c2n1 | MERTK | kinase activity, inhibitor | 1 µM | relative to: untreated control | 88%
C=CC(=O)N1CCC[C@@H](n2nc(-c3ccc(Oc4ccccc4)cc3)c3c(N)ncnc32)C1 | Receptor-interacting serine/threonine-protein kinase 3 (RIPK3, Homo sapiens, UniProt Q9Y572) | kinase activity, inhibitor, HotSpot radiometric | 100 nM, with: ATP 10 µM | – | 44.9 ± 0.3%
CNC(=O)c1cc(Oc2ccc(NC(=O)Nc3ccc(Cl)c(C(F)(F)F)c3)cc2)ccn1 | CDK2 with cyclin A2 | kinase activity, inhibitor, ADP-Glo kinase | 100 nM | – | 41.8%
COc1cc(Nc2ncc3c(n2)-c2ccc(Cl)cc2C(c2c(F)cccc2OC)=NC3)ccc1C(=O)O | EPHA8 | kinase activity | 1 µM | – | 102%
Cc1cc(NC(=O)c2cccc(NC(=O)/C=C/CN(C)C)c2)ccc1Nc1nccc(-c2cccnc2)n1 | Mitogen-activated protein kinase 9 (MAPK9, Homo sapiens, UniProt P45984) | enzyme activity, inhibitor | 0.006774 µM, unit not given | relative to: vehicle | 0.84
COc1cc(F)ccc1-c1ncnc(Nc2cccc(C[S@](C)(=N)=O)c2)n1 | MERTK | kinase activity | 10 µM, with: 10 µM ATP | – | 58%
CC(=O)Nc1c(N)nc(SCC(=O)NN)[nH]c1=O | CDK2 with cyclin A2 | kinase activity | 20 nM | – | 69.1%
O=C(O)c1ccc(Nc2ncc3c(n2)-c2ccc(Cl)cc2C(c2c(F)cccc2F)=NC3)cc1 | human Snk(h) | kinase activity | 1 µM | – | 110%
C=CC(=O)N1CCC[C@@H](n2nc(-c3ccc(Oc4ccccc4)cc3)c3c(N)ncnc32)C1 | Testis-specific serine/threonine-protein kinase 2 (TSSK2, Homo sapiens, UniProt Q96PF2) | – | 0.1 µM | – | 87.6%
Cc1cc(Nc2cc(N3CCN(C)CC3)nc(Sc3ccc(NC(=O)C4CC4)cc3)n2)[nH]n1 | Insulin-like growth factor 1 receptor, activated (IGF1R, Homo sapiens, UniProt P08069) | kinase activity | 0.03 µM, activated kinase | relative to: control | 100%

Repeated from above:
Structure (SMILES) | target | assay | conditions | scale | remaining activity
C=CC(=O)N1CCC[C@@H](n2nc(-c3ccc(Oc4ccccc4)cc3)c3c(N)ncnc32)C1 | Testis-specific serine/threonine-protein kinase 2 (TSSK2, Homo sapiens, UniProt Q96PF2) | – | 0.1 µM | – | 87.6%
Cc1cc(Nc2cc(N3CCN(C)CC3)nc(Sc3ccc(NC(=O)C4CC4)cc3)n2)[nH]n1 | Insulin-like growth factor 1 receptor, activated (IGF1R, Homo sapiens, UniProt P08069) | kinase activity | 0.03 µM, activated kinase | relative to: control | 100%
